Measured values of several laboratories.
Parts stem from different laboratories: compare values within a part only.

Block 1
Target: Interferon regulatory factor 7, full length, phosphomimetic (IRF7, Homo sapiens, UniProt Q92985, residues 1-503, S471D/S472D/S475D/S476D/S477D/S483D/S484D/S487D)
Technique: protein-binding microarray
Form: double-stranded DNA, one strand shown
Matrix: in vitro
Concentration: 2200 nM top
Notes: 60-bp whole probe
Together with: salmon DNA 0.4 mg/ml
Baseline: random background probes
Direction: higher = stronger binding
Target sequence (chain): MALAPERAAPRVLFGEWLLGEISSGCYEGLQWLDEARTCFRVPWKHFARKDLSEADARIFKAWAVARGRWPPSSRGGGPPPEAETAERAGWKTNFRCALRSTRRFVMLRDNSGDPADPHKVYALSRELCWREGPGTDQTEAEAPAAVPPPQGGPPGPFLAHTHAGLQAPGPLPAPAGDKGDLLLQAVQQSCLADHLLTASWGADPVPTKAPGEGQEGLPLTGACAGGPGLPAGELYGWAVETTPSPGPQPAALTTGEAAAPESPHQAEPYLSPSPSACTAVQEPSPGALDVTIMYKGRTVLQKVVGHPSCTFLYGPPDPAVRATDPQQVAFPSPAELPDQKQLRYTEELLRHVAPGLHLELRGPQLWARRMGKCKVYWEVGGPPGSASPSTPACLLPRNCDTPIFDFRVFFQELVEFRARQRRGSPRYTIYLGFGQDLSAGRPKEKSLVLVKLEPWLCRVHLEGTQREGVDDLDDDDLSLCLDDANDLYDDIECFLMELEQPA
Oligonucleotide	fitted relative affinity [z-score]
GCCTAGCACGACGGTTTCGGTCTCGGGATGTGCTAGGTCTTGATTCGCTTGACGCTGCTG	6.61
GCCTAGCACTCAAAAAATGATTGGTTACTGTGCTAGGTCTTGATTCGCTTGACGCTGCTG	-0.888
GCCTAGCACTTAGATTTCGGGACTGGATTAGTGCTAGTCTTGATTCGCTTGACGCTGCTG	0.941
GCCTAGCACGACGGTTTCGGGACTAGGGACGTGCTAGTCTTGATTCGCTTGACGCTGCTG	3.49

Block 2
Target: TATA-box-binding protein 1 (TBP1, Arabidopsis thaliana, UniProt P28147, residues 1-200, full length assumed)
Technique: protein-binding microarray
Form: double-stranded DNA, one strand shown
Matrix: in vitro
Concentration: not given
Notes: k-mer, scored over probes, only values ≥0.25
Direction: higher = stronger binding
Residues (chain): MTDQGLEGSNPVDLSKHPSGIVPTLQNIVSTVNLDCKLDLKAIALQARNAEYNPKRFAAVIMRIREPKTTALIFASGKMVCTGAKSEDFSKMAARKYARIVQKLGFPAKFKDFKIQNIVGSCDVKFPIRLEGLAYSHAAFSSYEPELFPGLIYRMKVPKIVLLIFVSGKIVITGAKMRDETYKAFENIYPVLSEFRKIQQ
Oligonucleotide	E-score
CATTATA	0.415
CATTAAA	0.344
ATAATAA	0.42

Block 3
Target: Sal-like protein 4, full length isoform A (SALL4, Homo sapiens, UniProt Q9UJQ4, residues 1-1053)
UniProt Q9UJQ4, sequence (whole entry, looked up): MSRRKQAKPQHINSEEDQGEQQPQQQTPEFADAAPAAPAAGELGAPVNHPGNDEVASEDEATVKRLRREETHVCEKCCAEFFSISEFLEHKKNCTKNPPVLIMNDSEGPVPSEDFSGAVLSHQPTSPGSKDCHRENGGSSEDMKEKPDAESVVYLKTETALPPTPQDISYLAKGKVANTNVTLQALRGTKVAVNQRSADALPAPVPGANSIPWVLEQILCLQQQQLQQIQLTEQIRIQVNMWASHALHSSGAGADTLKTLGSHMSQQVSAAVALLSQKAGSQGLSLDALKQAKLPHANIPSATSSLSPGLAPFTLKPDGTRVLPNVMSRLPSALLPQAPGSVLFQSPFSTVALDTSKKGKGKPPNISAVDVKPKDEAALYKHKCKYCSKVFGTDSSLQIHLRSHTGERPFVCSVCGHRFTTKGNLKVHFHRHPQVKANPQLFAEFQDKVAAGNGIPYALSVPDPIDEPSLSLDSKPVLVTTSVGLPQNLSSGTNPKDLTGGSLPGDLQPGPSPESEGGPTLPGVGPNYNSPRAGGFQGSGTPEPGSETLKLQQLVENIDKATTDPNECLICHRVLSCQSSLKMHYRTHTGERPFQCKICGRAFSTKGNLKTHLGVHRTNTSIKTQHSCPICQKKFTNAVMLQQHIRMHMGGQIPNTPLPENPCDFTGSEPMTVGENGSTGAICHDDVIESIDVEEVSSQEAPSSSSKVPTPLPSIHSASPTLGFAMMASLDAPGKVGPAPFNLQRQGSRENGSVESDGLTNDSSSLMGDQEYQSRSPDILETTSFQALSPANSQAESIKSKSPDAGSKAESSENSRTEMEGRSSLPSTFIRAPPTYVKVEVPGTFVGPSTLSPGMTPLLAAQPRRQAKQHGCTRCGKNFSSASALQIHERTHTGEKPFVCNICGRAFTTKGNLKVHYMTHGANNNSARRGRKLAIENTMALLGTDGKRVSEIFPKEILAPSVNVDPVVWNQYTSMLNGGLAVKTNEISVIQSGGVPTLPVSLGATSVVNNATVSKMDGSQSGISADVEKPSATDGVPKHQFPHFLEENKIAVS
Technique: universal PBM
Form: double-stranded DNA, one strand shown
Matrix: in vitro
Concentration: 600 nM
Notes: 8-mer, flanks averaged, mean of replicates
Direction: higher = stronger binding
Oligonucleotide	E-score
GGGGCCTA	-0.379
CTCTTTTA	0.0544
AATAATTG	0.404
GTAGAAAC	-0.0135
AAGGTGAT	0.0446

Single results of other studies
Substance	target	assay	system	conditions	how to read	measurement	value
PhoQ, residues 284 288 289 292 302 303 WVSSAF	PhoP, residues 12 14 15 18 19 NMSSL (Escherichia coli, UniProt P23836)	Sort-seq, refers to: YFP reporter	E. coli	PhoQ-PhoP variant library, together with: 10 µM Mg2+	baseline: high Mg2+ state, higher = stronger signaling	fold induction	4.97
